# Measurements of several laboratories.
# ± marks the error that the study gave.
# Tripartite terminase subunit 3 C-terminal nuclease domain: Tripartite terminase subunit 3, C-terminal nuclease domain (Human betaherpesvirus 5, UniProt P16732)
SMILES,tested on,test,test system,conditions,endpoint,result
CN1CCN(c2cc(-c3ccncc3)c(-c3ccc4ccccc4c3)nn2)CC1,"P2Y purinoceptor 4 (P2RY4, Homo sapiens, UniProt P51582)","antagonist, FLIPR",,10 µM,inhibition,0.1%
O=C(Nc1cccnn1)N1CCC(=Cc2cccc(Oc3ccc(C(F)(F)F)cn3)c2)CC1,"dopamine D4.2 receptor, human",binding,,"10 µM, with: [3H]spiperone",inhibition,5%
CC(=O)c1c(C)c2cnc(Nc3ccc(N4CCNCC4)cn3)nc2n(C2CCCC2)c1=O,human coronavirus OC43,virus-induced cell killing,MRC-5,maximum over 10 doses,maximum inhibition,0%
COc1cc(/C=C/C(=O)CC(=O)/C=C/c2ccc(O)c(OC)c2)ccc1O,"APP (Homo sapiens, UniProt P05067)","Aβ42 self-aggregation, inhibitor, thioflavin T fluorescence",,0.01 µM,inhibition,2.3%
CCN1CCc2c(sc3[nH]c(=O)n(O)c(=O)c23)C1,Tripartite terminase subunit 3 C-terminal nuclease domain,"endonuclease activity, ELISA",,"20 µM, with: dsDNA",inhibition,88%
Nc1ccncc1,"Voltage-gated potassium channel, KQT; KCNQ2(Kv7.2)/KCNQ3(Kv7.3) (KCNQ3/KCNQ2, Homo sapiens, UniProt O43525+O43526)","ion current, antagonist, automated patch clamp",HEK293,3 µM,inhibition,-2%
COc1cc(Nc2ncc(F)c(Nc3ccc4c(n3)NC(=O)C(C)(C)O4)n2)cc(OC)c1OC,"CSNK2A1 (Homo sapiens, UniProt P68400)",KINOMEscan,,10 µM,inhibition,100%
Nc1ncnc2c1ncn2[C@@H]1O[C@H](C[C@@H](N)CC[C@H](N)C(=O)O)[C@@H](O)[C@H]1O,"DNA adenine methyltransferase CamA (Clostridioides difficile, UniProt Q183J3)",,,concentration not given,inhibition,> 50%
CC(=O)N[C@H]1C/C=C/COc2ccc(cc2)C[C@@H](C(=O)N[C@@H](CCCNC(=N)N)C(=O)c2nc3ccccc3s2)NC(=O)[C@H](CC(C)C)NC1=O,"Hepatocyte growth factor activator serine protease (Homo sapiens, UniProt Q04756)","inhibitor, fluorogenic",,concentration not given,inhibition,no inhibition
CC(=O)N[C@@H]1C(N)C[C@](OC2C(O)[C@H](Oc3ccc([N+](=O)[O-])cc3)OC(CO)[C@@H]2O)(C(=O)O)OC1[C@H](O)[C@H](O)CO (stereo partly drawn),"Sialidase A (nanA, Streptococcus pneumoniae, UniProt P62575)",,,"8 µM, pH 6",inhibition,9 ± 8.3%
CN(C(=O)n1cnc(-c2ccc[n+]([O-])c2)c1)C1CCCCC1,"AVPR2 (Homo sapiens, UniProt P30518)",radioligand binding,,"10 µM, with: [3H]arginine vasopressin",inhibition,14%
O=C1CN=C(c2ccccc2)c2cc(/N=N/c3ccc(S(=O)(=O)O)cc3)ccc2N1,"HTR3A (Homo sapiens, UniProt P46098)","5-HT-induced current, inhibitor, whole-cell patch clamp",CHO cells,"100 µM, UV light, with: 5-HT",inhibition,76 ± 4%
CCOC(=O)c1ccc(-c2ccc(OC(=O)N(C)Cc3cccc(-c4ccncc4)c3)cc2)cc1,human coronavirus OC43,virus-induced cell killing,MRC-5,screen,maximum inhibition,14.2%
Cc1onc(-c2ccc(F)cc2)c1C(=O)Nc1ccc2c(c1)B(O)OC2,"Genome polyprotein, NS2B-NS3 protease (dengue virus type 2, UniProt P29990)","enzyme activity, FRET",dengue virus serotype 2,"50 µM, with: substrate 50 µM",inhibition,≤ 10%
O=C(Nc1cnccc1Cl)N1CCN(Cc2ccc3c(c2)OC(F)(F)O3)CC1,"ZAP70 (Homo sapiens, UniProt P43403)","kinase activity, inhibitor",,"50 µM, human, with: poly(Glu,Tyr)",inhibition,18%
O=C(Nc1ccc2c(c1)B(O)OC2)c1ccccc1OCc1ccccc1,"Genome polyprotein, NS2B-NS3 protease (West Nile virus, UniProt P06935)","enzyme activity, FRET",,"50 µM, with: substrate 50 µM",inhibition,14 ± 7%
COc1ccc(N2C(=O)N(c3c(C)cccc3Cl)Cc3cnc(Nc4ccc(C5CCN(C)CC5)cc4OC)nc32)nc1,"INSRR (Homo sapiens, UniProt P14616)","kinase activity, inhibitor",,"0.5 µM, kinase IRR",inhibition,9%
O=C(Nc1ccc2c(c1)B(O)OC2)c1ccc(OCc2ccccc2)cc1,"Genome polyprotein, NS2B-NS3 protease (West Nile virus, UniProt P06935)","enzyme activity, FRET",,"50 µM, with: substrate 50 µM",inhibition,12 ± 5%
COc1cc2c3cc1Oc1cc(ccc1O)C[C@@H]1c4c(cc(OC)c(O)c4Oc4ccc(cc4)C[C@@H]3N(C)CC2)CC[N+]1(C)C,"Chrnd/Chrna1/Chrne (Mus musculus, UniProt P02716+P04756+P20782)","end-plate current peak height, two-electrode voltage clamp",mouse hemidiaphragm,"0.1 µM, AChE intact",inhibition,36%
O=C(Nc1ccc2c(c1)B(O)OC2)c1ccc(C(F)(F)F)cc1,"Genome polyprotein, NS2B-NS3 protease (dengue virus type 2, UniProt P29990)","enzyme activity, FRET",dengue virus serotype 2,"50 µM, with: substrate 50 µM",inhibition,26 ± 7%
O=c1[nH]c2sc3c(c2c(=O)n1O)CCCC3,Tripartite terminase subunit 3 C-terminal nuclease domain,"endonuclease activity, ELISA",,"20 µM, with: dsDNA",inhibition,100%

# For quick reference, copied from above:
SMILES,tested on,test,test system,conditions,endpoint,result
O=C(Nc1ccc2c(c1)B(O)OC2)c1ccc(C(F)(F)F)cc1,"Genome polyprotein, NS2B-NS3 protease (dengue virus type 2, UniProt P29990)","enzyme activity, FRET",dengue virus serotype 2,"50 µM, with: substrate 50 µM",inhibition,26 ± 7%
CCN1CCc2c(sc3[nH]c(=O)n(O)c(=O)c23)C1,Tripartite terminase subunit 3 C-terminal nuclease domain,"endonuclease activity, ELISA",,"20 µM, with: dsDNA",inhibition,88%
O=C(Nc1cnccc1Cl)N1CCN(Cc2ccc3c(c2)OC(F)(F)O3)CC1,"ZAP70 (Homo sapiens, UniProt P43403)","kinase activity, inhibitor",,"50 µM, human, with: poly(Glu,Tyr)",inhibition,18%
